Assay results of several laboratories.
Every numbered part comes from another study and shows a few of its results, in no order. Positions count from the first letter of the parent shown.

Block 1
Target: RNA binding protein fox-1 homolog 2, RRM domain, GST-SBP tag (RBFOX2, Homo sapiens, UniProt O43251-10, residues 100-194)
Method: RNA Bind-n-Seq
Molecule type: RNA
Medium: in vitro
Concentration: 365 nM
Notes: natural RNA segment, single round, ends assumed
Relative to: no-protein control
Direction: higher = stronger binding
Constant ends, left off below: GGGAGUUCUACAGUCCGACGAUC … UGGAAUUCUCGGGUGCCAA
Target sequence (chain): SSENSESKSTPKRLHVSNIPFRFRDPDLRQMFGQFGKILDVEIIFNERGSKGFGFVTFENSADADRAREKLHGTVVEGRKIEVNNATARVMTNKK
| Strand | RBNS enrichment (R) |
| --- | --- |
| UGUGUCCUCAGAAUUAAGAACUGGUGUUUGUAAUAAAUCAAAGCAUGCUUAUGUCAGAAUGUGUGGGCUUUGGUUUAAAGGACAUAACCUCUCCGCUUGUGACAAAGUCA | 1.62 |
| UUUUCUCCAUGGAGCAAGGUGCAGUGCUAGAAUAUGGUGGUUGAUUCCCAAACAGAGCAGUUAACUUUACUCUUGGUUCUGAGUCUCCAAAUAAUAAUAGCCGACGUUUA | 0.547 |
| GUGGCAACCCCAGACCCAACCCAUGCCCCUGACAGAUCUAGUUCUCUUCUCCUGUGUUCCCUUUGAGUCCAGUGUGGGACACGGUUUAACUGUCCCAGCGACAUUUCUCC | 0.657 |
| GGUUCAGAGUUAGCAGCUGUUUCUAAGGAAAUGCUGUUCAGAUGCCUCCUAACUUUUAUAGUUAUUUUGUUUUAUAUUUCUGAAUUCUUGUAUCAGAUCCAAAGCUCUAU | 0.455 |
| CUGAGGCAGUUGACGGGGCAGUCAGAUUUUUAAAGUUUUGUACAAAGUUUUCCUUUGUAAUCACUCCCAUUUUUACUUAACAACCAACUUGUUGUGGCUCUUAUUUCUGA | 0.806 |
| GAGGACGGUGGCCCUCUUCUCACAGCUCCACUAGGCAGUGCCCCAGUAGGGACUCUGUGUGGGGGCUCCCACACCACAUUUCCCUUCUGCACUGCCCUAGCAGAGGUUCU | 0.207 |
| GAUUCAUUUUAUCGAGAUGCCAAGAUGAACACAAUGUGAAUAUCAUUUCCAUUUCUAAGCAGUUGAAUGACACAGUCAGAUUCUUUGGUGUAUGCUUUGUUCUUUCCAUC | 0.611 |
| UUACAAUCCCAUCCUAUGGCCUGCAGCCAGGCUGACAGCCUCUCCCCGAACCAUGCAUCCAAGUGCAGGCUGGGCUGCGGAUCCUUUUUGGGACCUCGAGGGGACAGCAA | 0.405 |
| CCUGCACUGAGCUGGCCUCACCAGUCGACUGAGGGAGCCCCUCAGCCCUGACCUUCUCCUGACCUGGCCUUUGACUCCCCGGAGUGGAGUGGGGUGGGAGAACCUCCUGG | 0.347 |
| GCAGUGUGAGAGAAAGCCAGGACCCGACAUGCUGUCCGUUAACGCUACGUCUGCUGUAGUUCCAUUUUGUAUGUUGUGUAAAGCGAGCAUCGAUCGAAGCAAAAGGUGAU | 2.47 |
| UCUGAAUUUUUUUUCUGAAUUUUUUUUUAACAUCUCUUUCUCAUUAGAGAUCUGAAAACUCAUUAGAGAUGUUGAGUCUUAUCAAAUAAAAAGCAUGAGACAUCAUGGCC | 0.653 |
| ACCGUCCCUGUGCUGUGGUCCCUUCUGGGCUCUAGUGUCAGGCCGGAGAACACCAGCCCCACCUGGACCCCGUGACCUUUGCCCUCUGACCUGCCACGGCCACCUCCGAG | 0.309 |

Block 2
Target: Sal-like protein 4, full length isoform B (SALL4, Homo sapiens, UniProt Q9UJQ4-2, residues 1-616)
Method: universal PBM
Molecule type: double-stranded DNA, one strand shown
Medium: in vitro
Concentration: not given
Notes: 8-mer, flanks averaged, mean of replicates
Direction: higher = stronger binding
Construct (chain): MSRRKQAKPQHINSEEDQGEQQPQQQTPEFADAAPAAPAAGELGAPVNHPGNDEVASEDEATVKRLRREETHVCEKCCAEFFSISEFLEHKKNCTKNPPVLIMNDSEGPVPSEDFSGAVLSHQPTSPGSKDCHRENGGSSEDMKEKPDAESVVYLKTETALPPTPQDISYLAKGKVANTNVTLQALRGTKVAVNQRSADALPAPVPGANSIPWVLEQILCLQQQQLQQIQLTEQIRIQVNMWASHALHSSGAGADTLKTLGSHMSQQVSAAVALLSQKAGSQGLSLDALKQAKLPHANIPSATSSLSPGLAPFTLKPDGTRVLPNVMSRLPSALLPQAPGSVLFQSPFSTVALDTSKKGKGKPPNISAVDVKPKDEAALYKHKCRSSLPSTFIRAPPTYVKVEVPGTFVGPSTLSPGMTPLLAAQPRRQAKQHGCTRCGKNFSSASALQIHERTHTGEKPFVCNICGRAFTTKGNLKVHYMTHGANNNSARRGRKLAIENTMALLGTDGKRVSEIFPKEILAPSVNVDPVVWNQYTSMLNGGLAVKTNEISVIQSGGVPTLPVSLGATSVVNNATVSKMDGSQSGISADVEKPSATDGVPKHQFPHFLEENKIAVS
| Strand | E-score |
| --- | --- |
| CCTTACCG | -0.177 |
| ATTGGGGG | 0.13 |
| CACAACTA | 0.132 |
| ATCGCGGG | -0.192 |
| CCGTTAAG | -0.149 |
| GGTCTACA | 0.0691 |
| GGCTGGAA | -0.218 |
| CCAGCTCC | -0.283 |
| ATAAAATG | 0.35 |
| ATCGTAGA | 0.165 |
| AGTTTGAA | 0.186 |
| AATGCGCC | -0.149 |
| CAATGCAA | 0.034 |
| CCACCGAA | -0.143 |
| ACATCTCG | 0.0746 |
| GCTTCCAA | -0.0534 |
| AGGTGGAG | -0.154 |
| AACCAGTA | 0.0155 |
| GGGACACC | -0.277 |
| ACCTAATC | 0.164 |
| CTTGCAGA | -0.134 |
| GACCGTAA | 0.0208 |
| GATACCCC | -0.0883 |
| ACGTCTAC | 0.0558 |
| AAAGCCTG | -0.054 |

Block 3
Target: Fragile X messenger ribonucleoprotein 1, C-terminal low-complexity region (Fmr1, Mus musculus, UniProt P35922)
Method: RNA Bind-n-Seq
Molecule type: RNA
Medium: in vitro
Concentration: 200 nM
Notes: whole 134-nt RNA, ends assumed
Added: 150 mM KCl
Relative to: input library
Direction: higher = stronger binding
Constant ends, left off below: GGGAGUUCUACAGUCCGACGAUC … UGGAAUUCUCGGGUGUCAAGG
| Strand | log2 enrichment |
| --- | --- |
| UGGUAGGUGGAUUUUGUUUAUUUUUUUAGCUCAUUUCCAGGGGUGGGAAUUUUUUUUUAAUAUGUGUCAUGAAUAAAGUUGUUUUUGAAA | 0.0283 |
| AGUCCUGUGCUACACAUCGUAUGUACCGAAUCGGGUUUGGGUUUUUGGGUUUUUGGGAAAGUAUUAUGUUACGCCGUUCGGAUCUGCACU | 0.641 |
| UGGCCCUGGUGGCAUGCGGGGAGGAAGAGGUGGCCUCAUGGAUCGUGGUGGUCCCGGUGCAAUGUUCAGAGGUGGCCGUGGUGGAGACAG | -0.144 |
| AAGUCCUGUGCUACACAUCGUAUGUACCGAAUCGGGUUUGGGUUUUUUUGGGAGGGAAAGUAUUAUGUUACGCCGUUCGGAUCUGCACUU | 0.963 |
| UCCUGUGCUACACAUCGUAUGUACCGAAUCGGGGAAAGGGGUUUGGGGUUUUUUUGGGGAAAGUAUUAUGUUACGCCGUUCGGAUCUGCA | 0.716 |
| CCUCAAGUCCUGUGCUACACAUCGUAUGUACCGAAUCGGGGAGGAGGGGAGGAAAGUAUUAUGUUACGCCGUUCGGAUCUGCACUUCCAG | 0.621 |
| CAAGUCCUGUGCUACACAUCGUAUGUACCGAAUCGGGGUUUGGUUUGGGGUUUGGGAAAGUAUUAUGUUACGCCGUUCGGAUCUGCACUU | 0.607 |
| CAAGUCCUGUGCUACACAUCGUAUGUACCGAAUCGGGCCCCGGCCCCGGCCCCGGAAAGUAUUAUGUUACGCCGUUCGGAUCUGCACUUC | -0.583 |
| UUGCGAAAAGGACCAAUUCCAGUGCCGGAACGAGCGCUGCAUCCCCUCUGUGUGGAGAUGCGACGAGGACGAUGACUGCUUAGACCACAG | -0.507 |
| GCAGGAAGUAAAAACAAAUGGAAAAAAUUCGGAUAGUGGCAGGGGUGGGGGUUGCUAAGGAAAGGGUGGGAUGGGAGUGGGUAAAGAGUU | 0.327 |
| AGUCCUGUGCUACACAUCGUAUGUACCGAAUCAAACCCAAAUUUAAAUUUUUUUAAAAAAGUAUUAUGUUACGCCGUUCGGAUCUGCACU | 0.171 |
| CCUCAAGUCCUGUGCUACACAUCGUAUGUACCGAAUCGGGGAAGGAAGGAAGGAAAGUAUUAUGUUACGCCGUUCGGAUCUGCACUUCCA | -0.194 |
| UCAAGUCCUGUGCUACACAUCGUAUGUACCGAAUCGGGAAAGGAAAGGGGAAAGGAAAGUAUUAUGUUACGCCGUUCGGAUCUGCACUUC | -0.445 |
| UGGCCCUGGUGGCAUGCGGGGAGGAAGAGGUGGCCUCAUGGAUCGUGGUGGUCCCGGUGGAAUGUUCAGAGGCGGCCGUGGUGGAGACAG | -0.173 |

Block 4
Target: CCNE1, cyclin fold, Cln2 fusion (human)
Method: yeast growth competition, sequencing
Medium: yeast
Notes: strong parent motif
Relative to: not given
Direction: higher = stronger binding
Starting sequence: PKMYT1 docking peptide (human); SFEPRNLLSLFED; partner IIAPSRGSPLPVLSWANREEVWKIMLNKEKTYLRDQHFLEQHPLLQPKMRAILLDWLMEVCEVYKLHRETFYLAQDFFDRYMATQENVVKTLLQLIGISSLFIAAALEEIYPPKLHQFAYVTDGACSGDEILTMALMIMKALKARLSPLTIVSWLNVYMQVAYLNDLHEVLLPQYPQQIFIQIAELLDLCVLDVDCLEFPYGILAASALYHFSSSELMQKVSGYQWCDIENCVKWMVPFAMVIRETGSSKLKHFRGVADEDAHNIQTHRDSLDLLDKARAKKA
| Variant | normalised enrichment score |
| --- | --- |
| SFFPRNLLSLFED [E3F] | 1.4 |
| KFEPRNLLSLFED [S1K] | 0.676 |
| SFEPRNLLSLFEY [D13Y] | 2.19 |
| SFWPRNLLSLFED [E3W] | 1.24 |
| SFEPRNLLSLSED [F11S] | 0.773 |
| SFECRNLLSLFED [P4C] | 1.47 |
| SFEPRNLLSLFEN [D13N] | 2.33 |
| SMEPRNLLSLFED [F2M] | 0.791 |
| SFEPRNLASLFED [L8A] | 1.29 |
| SFERRNLLSLFED [P4R] | 1.08 |
| GFEPRNLLSLFED [S1G] | 2.2 |
| SFEPRNLFSLFED [L8F] | 1.11 |
| SFEPRNLLELFED [S9E] | 1.97 |
| SVEPRNLLSLFED [F2V] | 0.631 |
| SFEPRHLLSLFED [N6H] | 0.823 |

Block 5
Target: Interferon regulatory factor 7, full length, phosphomimetic (IRF7, Homo sapiens, UniProt Q92985, residues 1-503, S101K/S471D/S472D/S475D/S476D/S477D/S483D/S484D/S487D)
Chain of UniProt Q92985 (whole entry, unmodified, looked up): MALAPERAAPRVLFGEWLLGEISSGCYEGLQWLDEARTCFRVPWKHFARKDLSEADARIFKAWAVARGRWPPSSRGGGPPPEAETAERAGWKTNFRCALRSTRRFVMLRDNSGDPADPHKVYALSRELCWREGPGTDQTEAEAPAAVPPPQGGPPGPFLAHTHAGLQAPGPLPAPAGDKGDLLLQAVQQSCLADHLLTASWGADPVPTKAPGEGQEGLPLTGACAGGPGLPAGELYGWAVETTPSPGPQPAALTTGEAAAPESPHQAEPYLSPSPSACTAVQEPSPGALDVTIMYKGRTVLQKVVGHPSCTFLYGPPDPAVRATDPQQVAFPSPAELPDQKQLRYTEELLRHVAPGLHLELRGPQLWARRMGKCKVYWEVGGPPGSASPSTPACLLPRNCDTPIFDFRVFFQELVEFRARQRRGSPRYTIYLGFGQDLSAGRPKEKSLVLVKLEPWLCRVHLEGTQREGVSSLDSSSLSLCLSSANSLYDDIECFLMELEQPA
Method: protein-binding microarray
Molecule type: double-stranded DNA, one strand shown
Medium: in vitro
Concentration: 250 nM
Notes: 60-bp whole probe
Added: salmon DNA 0.4 mg/ml
Relative to: random background probes
Direction: higher = stronger binding
Constant ends, left off below: GCCTAGCAC … GTCTTGATTCGCTTGACGCTGCTG
| Strand | log fluorescence [z-score] |
| --- | --- |
| GACGGTTTCCTTTTCCTGAGGTGCTAG | 6.48 |
| GACGAACTGAGACTGGAGGCGTGCTAG | -0.278 |
| ATAGAACTGAGTATCGATTAGTGCTAG | 0.729 |
| TCTGACCCCCTGCGCGGCAGGTGCTAG | -0.417 |
| TTAGAACTGAGTTTCGATTCGTGCTAG | 12 |
| CACGATTTCGGGTATCGAGACGTGCTA | 1.21 |
| GTAGATCTCAGTTTCGATTAGTGCTAG | 8.03 |
| GTCGGTTTCCTTTCCCTGACGTGCTAG | 6.29 |
| TCATGTCTGGATGTGCCACTGTGCTAG | -0.0605 |
| TACGAACTGAGTATCGAGACGTGCTAG | 0.021 |
| TCAAAAATCATTTTCTCACTGTGCTAG | 0.81 |
| GACGATATCAGACTGGACACGTGCTAG | -0.0787 |
| GACGGTATTGACTTTCGGGACGTGCTA | -0.116 |
| AACGATTTCGGGTTTCGAGACGTGCTA | 4.6 |
| TTAGGTTTCGGGTATCGGTTGGTGCTA | 7.08 |
| TCAGATATGCCAAATCTGACTGTGCTA | -0.224 |
| TTAGGACTGGGGTTTCCGTTAGTGCTA | 0.695 |

Excerpt of the above (block 2):
| Strand | E-score |
| --- | --- |
| ACCTAATC | 0.164 |
| ATTGGGGG | 0.13 |
| CCAGCTCC | -0.283 |
| CCGTTAAG | -0.149 |
| AGGTGGAG | -0.154 |
| AAAGCCTG | -0.054 |
| CTTGCAGA | -0.134 |
| ATCGTAGA | 0.165 |
| GACCGTAA | 0.0208 |
| ATCGCGGG | -0.192 |
| GATACCCC | -0.0883 |
| CCACCGAA | -0.143 |
| CACAACTA | 0.132 |
